Experimental data collected from several papers.
Protocols differ between the studies behind these lines. ± marks the error that the study gave.

SMILES | assay | test system | setting | tissue uptake
CC[C@H](C)[C@H](NC(=O)[C@H](CCCNC(=N)N)NC(=O)[C@H](CCCCN)NC(=O)[C@H](Cc1ccc(O)cc1)NC(=O)[C@H](CC(=O)O)NC(=O)[C@H](C)NC(=O)CNC(=O)CCOCCOCCOCCNC(=O)CN1CCN(CC(=O)O)CCN(CC(=O)O)CCN(CC(=O)O)CC1)C(=O)N[C@H](C(=O)N[C@H](C(=O)N[C@@H](CCCCN)C(=O)N[C@H](C(=O)N[C@@H](CC(N)=O)C(N)=O)C(C)C)C(C)C)[C@@H](C)O [copper-64 labelled] | ex vivo gamma counting | C57BL/6J male mice, B16-F10 tumour, stomach | intravenous, 1.85 MBq, 100 min | 1.8 ± 0.059 %ID/g
CCCC[C@H]1C(=O)N(C)[C@@H](CCCC)C(=O)N[C@@H](CCCNC(=O)CN2CCN(CC(=O)O)CCN(CC(=O)O)CCN(CC(=O)O)CC2)C(=O)N[C@H](C(=O)NCC(N)=O)CSCC(=O)N[C@@H](Cc2ccc(O)cc2)C(=O)N(C)[C@@H](C)C(=O)N[C@@H](CC(N)=O)C(=O)N2CCC[C@H]2C(=O)N[C@@H](Cc2c[nH]cn2)C(=O)N[C@@H](CC(C)C)C(=O)N(C)CC(=O)N[C@@H](Cc2c[nH]c3ccccc23)C(=O)N[C@@H](CO)C(=O)N[C@@H](Cc2c[nH]c3ccccc23)C(=O)N1C [gallium-68 labelled] |  | NOD/SCID mice, CHO-hPD-L1 xenograft, heart | 60 min, PBS pretreatment | 2.95 ± 0.37 %ID/g
CC[C@H](C)[C@H](NC(=O)[C@H](CCCNC(=N)N)NC(=O)[C@H](CCCCN)NC(=O)[C@H](Cc1ccc(O)cc1)NC(=O)[C@H](CC(=O)O)NC(=O)[C@H](C)NC(=O)CNC(=O)CCOCCOCCOCCNC(=O)CN1CCN(CC(=O)O)CCN(CC(=O)O)CCN(CC(=O)O)CC1)C(=O)N[C@H](C(=O)N[C@@H](CC(C)C)C(=O)N[C@@H](CCCCN)C(=O)N[C@H](C(=O)N[C@@H](CC(N)=O)C(N)=O)C(C)C)[C@@H](C)O [copper-64 labelled] | ex vivo gamma counting | C57BL/6J male mice, B16-F10 tumour, heart | intravenous, 1.85 MBq, 100 min | 0.44 ± 0.17 %ID/g
CC[C@H](C)[C@H](NC(=O)[C@@H](Cc1c[nH]c2ccccc12)NC(=O)[C@@H]1CCCN1C(=O)[C@H](CCCCN)NC(=O)[C@H](CCCCN)NC(=O)CCNC(=O)CCNC(=O)CN1CCN(CC(=O)O)CCN(CC(=O)O)CCN(CC(=O)O)CC1)C(=O)N[C@@H](C[Si](C)(C)C)C(=O)O [gallium-68 labelled] | ex vivo biodistribution | nude mice, HT-29 xenograft, brain | 90 min, added: levocabastine 0.5 µmol | 0.05 ± 0.01 %ID/g
CC[C@H](C)[C@H](NC(=O)[C@H](CCCCN)NC(=O)CNC(=O)[C@H](CC(C)C)NC(=O)[C@H](Cc1ccccc1)NC(=O)[C@H](CCCCN)NC(=O)[C@H](CO)NC(=O)[C@H](Cc1ccccc1)NC(=O)[C@H](Cc1c[nH]c2ccccc12)NC(=O)[C@H](CCC(N)=O)NC(=O)[C@@H](NC(=O)[C@H](Cc1ccccc1)NC(=O)CCCCCNC(=O)CN1CCN(CC(=O)O)CCN(CC(=O)O)CCN(CC(=O)O)CC1)C(C)C)C(=O)N[C@@H](CCC(=O)O)C(=O)N1CCC[C@H]1C(=O)N[C@@H](CC(=O)O)C(=O)N[C@H](C(=O)N[C@@H](CO)C(=O)N[C@@H](CCC(N)=O)C(=O)N[C@H](C(=O)N[C@@H](CCC(N)=O)C(=O)N[C@@H](CC(=O)O)C(=O)N1CCC[C@H]1C(=O)N[C@@H](CC(N)=O)C(=O)N[C@@H](CC(=O)O)C(=O)N[C@@H](CCC(N)=O)C(=O)N[C@@H](Cc1ccc(O)cc1)C(=O)N[C@@H](CCC(=O)O)C(=O)N1CCC[C@H]1C(=O)N[C@@H](Cc1ccccc1)C(=O)O)C(C)C)C(C)C [copper-64 labelled] |  | C57BL/6 mice, muscle | vehicle, intratracheal instillation | 0.39 ± 0.1 %ID/g
CSCC[C@H](NC(=O)CNC(=O)[C@H](CCCCN)NC(=O)[C@H](CC(C)C)NC(=O)[C@@H]1CCCN1C(=O)[C@H](CO)NC(=O)[C@H](Cc1c[nH]cn1)NC(=O)[C@H](Cc1c[nH]c2ccccc12)NC(=O)[C@H](CCCNC(=N)N)NC(=O)[C@H](CC(C)C)NC(=O)[C@H](CCCNC(=N)N)NC(=O)[C@H](Cc1c[nH]c2ccccc12)NC(=O)[C@H](CS)NC(=O)CCCCCNC(=O)CN1CCN(CC(=O)O)CCN(CC(=O)O)CCN(CC(=O)O)CC1)C(=O)O [copper-64 labelled] | ex vivo biodistribution | male C57BL/6J mice, bone | intravenous, 1.85 MBq, 0.5 h, B16-F10 tumour-bearing | 2.06 %ID/g
C[C@H](O)[C@@H](NC(=O)[C@H]1CCCN1C(=O)[C@@H](CCCCN)NC(=O)[C@@H](CO)NC(=O)[C@@H](Cc1ccc(O)cc1)NC(=O)[C@@H](CC(N)=O)NC(=O)CCOCCOCCOCCNC(=O)CN1CCN(CC(=O)O)CCN(CC(=O)O)CCN(CC(=O)O)CC1)C(=O)N[C@H](CC(=O)O)C(=O)N[C@H](CCCNC(=N)N)C(=O)N[C@H](CCC(N)=O)C(=O)N[C@H](Cc1ccc(O)cc1)C(=O)N[C@H](Cc1c[nH]cn1)C(=O)N[C@H](Cc1ccccc1)C(N)=O [gallium-68 labelled] |  | BALB/c nude mice U-87 MG tumour, bone | intravenous, 1.85 MBq, 1 h, radiolabelled | 0.26 ± 0.09 %ID/g
CC(C)C[C@@H](NC(=O)[C@@H](CCCNC(=N)N)NC(=O)[C@@H](Cc1c[nH]cn1)NC(=O)[C@@H](Cc1c[nH]c2ccccc12)NC(=O)[C@@H](Cc1c[nH]cn1)NC(=O)[C@@H](Cc1ccccc1)NC(=O)[C@H](NC(=O)[C@@H](Cc1ccc(O)cc1)NC(=O)CNC(=O)CNC(=O)CCOCCOCCOCCNC(=O)CN1CCN(CC(=O)O)CCN(CC(=O)O)CC1)[C@H](C)O)C(=O)N[C@H](CC(N)=O)C(=O)N1CCC[C@@H]1C(=O)O [gallium-68 labelled] |  | C57BL/6 mice, male, tumor | intravenous, 1.85 MBq, 60 min, added: blocking antibody | 4.56 ± 1.18 %ID/g

For quick reference, copied from above:
SMILES | assay | test system | setting | tissue uptake
CC(C)C[C@@H](NC(=O)[C@@H](CCCNC(=N)N)NC(=O)[C@@H](Cc1c[nH]cn1)NC(=O)[C@@H](Cc1c[nH]c2ccccc12)NC(=O)[C@@H](Cc1c[nH]cn1)NC(=O)[C@@H](Cc1ccccc1)NC(=O)[C@H](NC(=O)[C@@H](Cc1ccc(O)cc1)NC(=O)CNC(=O)CNC(=O)CCOCCOCCOCCNC(=O)CN1CCN(CC(=O)O)CCN(CC(=O)O)CC1)[C@H](C)O)C(=O)N[C@H](CC(N)=O)C(=O)N1CCC[C@@H]1C(=O)O [gallium-68 labelled] |  | C57BL/6 mice, male, tumor | intravenous, 1.85 MBq, 60 min, added: blocking antibody | 4.56 ± 1.18 %ID/g
